Assay results from different studies.
Parts stem from different laboratories: compare values within a part only.
Chain of UniProt P00519 (whole entry, unmodified, looked up): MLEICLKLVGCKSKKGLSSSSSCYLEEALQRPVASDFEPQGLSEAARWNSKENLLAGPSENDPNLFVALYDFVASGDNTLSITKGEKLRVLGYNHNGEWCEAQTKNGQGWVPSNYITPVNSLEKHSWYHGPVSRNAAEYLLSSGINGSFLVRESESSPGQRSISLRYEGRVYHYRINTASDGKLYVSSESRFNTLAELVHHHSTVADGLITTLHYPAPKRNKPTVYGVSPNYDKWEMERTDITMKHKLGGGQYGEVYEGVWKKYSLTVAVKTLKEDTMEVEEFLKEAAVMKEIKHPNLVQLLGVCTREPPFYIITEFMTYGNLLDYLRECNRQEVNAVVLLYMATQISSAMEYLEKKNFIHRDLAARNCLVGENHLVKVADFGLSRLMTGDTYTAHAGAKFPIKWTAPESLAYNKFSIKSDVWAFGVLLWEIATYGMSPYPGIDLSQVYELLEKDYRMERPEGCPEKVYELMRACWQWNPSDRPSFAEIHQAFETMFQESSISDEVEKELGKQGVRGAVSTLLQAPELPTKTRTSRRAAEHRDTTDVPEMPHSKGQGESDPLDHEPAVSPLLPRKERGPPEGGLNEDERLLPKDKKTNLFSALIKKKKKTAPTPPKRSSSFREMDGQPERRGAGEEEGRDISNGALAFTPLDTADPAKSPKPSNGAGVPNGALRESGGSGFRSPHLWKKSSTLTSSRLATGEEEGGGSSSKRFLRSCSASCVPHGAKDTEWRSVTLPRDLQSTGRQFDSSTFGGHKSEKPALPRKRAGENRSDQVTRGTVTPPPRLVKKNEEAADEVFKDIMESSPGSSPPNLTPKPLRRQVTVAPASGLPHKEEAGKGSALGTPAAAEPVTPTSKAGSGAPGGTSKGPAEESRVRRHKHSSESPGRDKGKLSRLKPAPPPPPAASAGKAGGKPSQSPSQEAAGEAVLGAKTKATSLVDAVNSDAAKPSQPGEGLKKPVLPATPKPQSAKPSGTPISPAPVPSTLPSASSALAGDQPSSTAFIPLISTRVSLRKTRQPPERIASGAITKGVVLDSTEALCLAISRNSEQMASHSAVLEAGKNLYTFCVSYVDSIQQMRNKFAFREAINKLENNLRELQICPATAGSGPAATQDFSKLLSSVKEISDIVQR

Study 1
Target: Sal-like protein 4, full length isoform B (SALL4, Homo sapiens, UniProt Q9UJQ4-2, residues 1-616)
Method: universal PBM
Molecule type: double-stranded DNA, one strand shown
Medium: in vitro
Tested at: not given
Setting: 8-mer, flanks averaged, mean of replicates
Direction: higher = stronger binding
Oligonucleotide | E-score
AACCTTTA | 0.182
GAGCACAC | -0.157
CATCACCG | -0.107
ACTCCGCT | -0.174
CGCGAGGA | -0.328
GCTTGAAA | 0.127
CCGACTCG | -0.179
AAAGGTCC | -0.223

Study 2
Target: RNA binding protein fox-1 homolog 2, RRM domain, GST-SBP tag (RBFOX2, Homo sapiens, UniProt O43251-10, residues 100-194)
Method: RNA Bind-n-Seq
Molecule type: RNA
Medium: in vitro
Tested at: 365 nM
Setting: natural RNA segment, single round, ends assumed
Relative to: no-protein control
Direction: higher = stronger binding
Target sequence (chain): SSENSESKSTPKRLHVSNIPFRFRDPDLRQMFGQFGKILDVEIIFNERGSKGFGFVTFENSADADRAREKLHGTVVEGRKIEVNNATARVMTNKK
Oligonucleotide | RBNS enrichment (R)
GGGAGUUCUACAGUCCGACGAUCUCAUUAUCGAUGAAAGUGAUGUAUCUUCACCUACCAUUUUCCUAAUAAAGUUCUGUAUUCAAAUAUAGCUGCCAAGCAUCCUCAGUGAAUGUUACCAUGUGGAAUUUUCCUGGAAUUCUCGGGUGCCAA | 2.55
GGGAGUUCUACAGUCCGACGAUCCCCCAUCUCUACCAACAAAGUGUAUUCUUCAUAGAUAUUAGAUAAAUCUUCCAGGCUUCAUCAUCAAGAGGGGAAGGGACCUUAAUUCUAGGGUCUCCCCUUUACCCUCUUGGAAUUCUCGGGUGCCAA | 0.905
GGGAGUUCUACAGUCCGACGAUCACACUGGAAUGAUUUAGCUUUGUUAUUGCAUGUCUUGUGUUAAGUGUUUUGUAUAUGAUAUUGCAGUUUUACUAGGCAAAUCUUCAAAAGAUGCACUUUAGGAAACGAAAUGGAAUUCUCGGGUGCCAA | 1.31
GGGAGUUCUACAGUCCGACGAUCUUUUUUUUUGAGACAGAGUCUCGCUCUGUCGCCCAGGCUGGAGGGCAGUGGCACGAUCUCAGCUCACUGCAAGCUCCAACUCCCGGGUUCACGCCAUUCUCCUGCCUCAGUGGAAUUCUCGGGUGCCAA | 0.308
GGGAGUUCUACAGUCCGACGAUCUUUCUCUCUAGCAGGCUUGGAGGGAAGGCCUUCUGGUCUACCUGGGAUUUUACAGAGUUUUUGAGAAUGGGUGUGAUUACUGACUUGAAUUAAAAAAGAAUUUGGAGUUAUGGAAUUCUCGGGUGCCAA | 0.735
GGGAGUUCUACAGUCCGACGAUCAAACAUGUAAAAAUGUUUCAAAAAAAUAAUAAAAUAAAUAAAUACGAAGAAUAUGUCAGGACAGUCACUGCCUUCACCUUCUCCAUUUCACACCGGUGGUACAAGAAAUCUGGAAUUCUCGGGUGCCAA | 0.782
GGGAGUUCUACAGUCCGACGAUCACGCAGCCAGGCAUUCAGGGGUGUGUUUGCCACAUGGAGCAUCCCUUCCUGGUCUUGCCAGGCACCUGCACAGAGCGUCUCCAGCCCCAUCUCCUAACGGGGGCUGGGGGUGGAAUUCUCGGGUGCCAA | 0.504
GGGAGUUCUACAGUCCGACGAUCUGUCAGUCUCAUGACAGUUUGUUGGUUGUGCCAAACACUUUAUUUGGGAAAGGAAAGCCCAGAUUUGAAUGGGUCUUUCCCCUGGGCCUUAUCCUAUAGAGGCAUUUGUAUGGAAUUCUCGGGUGCCAA | 0.312

Study 3
Target: Hepatocyte nuclear factor 3-alpha (Foxa1, Mus musculus, UniProt P35582, residues 1-468, full length assumed)
Method: EMSA with sequencing
Molecule type: double-stranded DNA, one strand shown
Medium: in vitro
Tested at: 10 and 20 nM
Setting: whole designed probe, mean of two concentrations, ends assumed
Relative to: negative control set to 0
Direction: higher = stronger binding
Target sequence (chain): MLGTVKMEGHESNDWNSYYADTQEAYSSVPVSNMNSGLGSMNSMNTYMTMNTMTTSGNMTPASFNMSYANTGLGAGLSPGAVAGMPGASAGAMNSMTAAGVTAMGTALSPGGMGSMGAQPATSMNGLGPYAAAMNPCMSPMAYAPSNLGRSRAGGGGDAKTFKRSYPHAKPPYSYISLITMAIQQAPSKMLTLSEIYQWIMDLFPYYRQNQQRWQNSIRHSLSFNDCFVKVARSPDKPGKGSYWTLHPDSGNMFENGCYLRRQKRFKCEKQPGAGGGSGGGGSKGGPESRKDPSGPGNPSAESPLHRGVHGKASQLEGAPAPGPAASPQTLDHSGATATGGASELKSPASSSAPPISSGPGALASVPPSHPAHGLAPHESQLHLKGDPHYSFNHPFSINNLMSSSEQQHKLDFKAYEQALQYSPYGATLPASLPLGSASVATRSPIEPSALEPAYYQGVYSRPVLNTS
Oligonucleotide | normalised bound fraction [ratio]
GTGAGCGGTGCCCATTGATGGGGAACTAAATAGCTGTCTGTGGGAGTGTTGACACTGTTGCTATTCAGTGGACTCTAGATATGCAGCCAGATGAACTTTGTGAAGATGAACTTATCAGTGTAAATAAGGAAAGTGGTTGTGATGAAAAGCATGAATGTTCCAGGGGAAATGACTCTGGCAAATTTTTCACATTAAAGGAACTCTTGGAGATACTTCACATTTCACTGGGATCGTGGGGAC | 0.195
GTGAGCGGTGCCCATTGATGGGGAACAGTTTATTATTTGCTTAAAAACAAATTAATATAATTGCATTGCTTATAAAATGTAACCTTACTTGACCGCTAATGTTGACCTAGTTCTTTTTTCTGTTTACTTTGTTTTGAATTTACTGATAATATGAACCTTGGAAAATCCATCAATACAAAGAGTTTCTGTTTCTATTGATTTGTCAGAGAGGTGTTCTGATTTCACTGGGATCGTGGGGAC | 0.49
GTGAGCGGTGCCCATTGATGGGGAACAATTTCCTGTGCTCTCTTTCCTGCCCTCATTCAAGTGGTCACCTTCCTTATTTCCCTCAGAAATACTCACAGAAGCTGTCAGAAGGGTTATGAGTCAACACTGAGCTCCTTGAACCCACATGTCTATCAGCCAACCTTGGTGTGGCTGGACCTCACATTCTGTTTGCCCTTCTGTGATGGATGAACTTGTGTTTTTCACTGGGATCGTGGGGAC | 0.153
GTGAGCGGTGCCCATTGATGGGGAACAAAGGCTTCATAATGTTTTTGAGGTGTTTTGTAGGCTAGTTTTTGGGTTTGTTTATTTTAAAAAAAAAACTCTTTAATGTTTTTCAGAAGATAAGTAAACAAGAACAATTATACCTTTTTCTTAATGAACGGAAAGAATCAAGGGTGTCCCTAAGGCTGTGGTGAATATAGGAGCAACTGAGGTGAGGGCCAGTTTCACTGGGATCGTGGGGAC | 0.492
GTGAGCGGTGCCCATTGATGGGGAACGGTATAACTAAACAAACAAACAAACAAAAAGATACTAAAGATACCGTCTATAATTGGACCCAGGTCAGTGGTGCCTCCAGGCACCTGGCCAAAGTCAACACAGGGGGTTTGGAAGCGGAAGATAATATCAACAATGGCTAACACATTCAACGCACAAAACAGAATCCTGTTAGAACAGGTGAGAAGTAGGGCTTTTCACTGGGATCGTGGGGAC | 0.537

Further values, each from its own experiment
Structure (SMILES) | target | effect on | method | tested at | endpoint | value
Cc1noc([C@H]2C[C@@H](c3ccc(C(F)(F)F)cc3)CN(C(=O)N3CCS(=O)(=O)C3)C2)n1 | Tyrosine-protein kinase ABL1, phosphorylated (ABL1, Homo sapiens, UniProt P00519, F317L) | cell-free assay | competition with immobilised ligand | 1 µM | remaining binding | 85%

Excerpt of the above (study 3):
Oligonucleotide | normalised bound fraction [ratio]
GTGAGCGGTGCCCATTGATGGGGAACAAAGGCTTCATAATGTTTTTGAGGTGTTTTGTAGGCTAGTTTTTGGGTTTGTTTATTTTAAAAAAAAAACTCTTTAATGTTTTTCAGAAGATAAGTAAACAAGAACAATTATACCTTTTTCTTAATGAACGGAAAGAATCAAGGGTGTCCCTAAGGCTGTGGTGAATATAGGAGCAACTGAGGTGAGGGCCAGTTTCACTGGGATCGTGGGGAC | 0.492
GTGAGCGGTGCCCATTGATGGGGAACTAAATAGCTGTCTGTGGGAGTGTTGACACTGTTGCTATTCAGTGGACTCTAGATATGCAGCCAGATGAACTTTGTGAAGATGAACTTATCAGTGTAAATAAGGAAAGTGGTTGTGATGAAAAGCATGAATGTTCCAGGGGAAATGACTCTGGCAAATTTTTCACATTAAAGGAACTCTTGGAGATACTTCACATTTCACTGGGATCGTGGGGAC | 0.195
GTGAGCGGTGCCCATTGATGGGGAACAATTTCCTGTGCTCTCTTTCCTGCCCTCATTCAAGTGGTCACCTTCCTTATTTCCCTCAGAAATACTCACAGAAGCTGTCAGAAGGGTTATGAGTCAACACTGAGCTCCTTGAACCCACATGTCTATCAGCCAACCTTGGTGTGGCTGGACCTCACATTCTGTTTGCCCTTCTGTGATGGATGAACTTGTGTTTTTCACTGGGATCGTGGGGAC | 0.153
